Published values gathered from unrelated publications.
Lines come from different studies, so protocols differ. Several values in a cell are separate wells, animals, samples, runs or records. ± gives the spread as reported.

SMILES	test	test system	conditions	how to read	endpoint	value
C=CCN1CC(=O)N2[C@@H](Cc3ccc(O)cc3F)C(=O)N(Cc3cccc(N4CC(N5CCN(CC)CC5)C4)n3)C[C@@H]2N1C(=O)NCc1ccccc1	–	advanced solid tumour patients	oral, 10 mg twice daily, any grade, dose-escalation	–	treatment-related AST increased	0%
CN1CCN(C(=O)c2ccc(C3CCCCC3)cc2)CC1=O	hepatocyte stability	cryopreserved mouse hepatocytes	1 µM	–	hepatic clearance	48 mL/min/kg
CC[C@@H]([C@H](C)O)n1ncn(-c2ccc(N3CCN(c4ccc(OC[C@@H]5CO[C@@](Cn6cncn6)(c6ccc(F)cc6F)C5)cc4)CC3)cc2)c1=O	–	rat plasma	1600 ng/mL, 3 h, room temperature	reference: nominal concentration	stability relative error	0.3%
CC(C)Cn1cnc2c(N)nc3ccccc3c21	–	C57BL/6J CYP1A-knockout female mice, corn oil-treated, liver microsomes	1 µM, 45 min	reference: control	remaining compound	56%
CC(C)(C(=O)N1CCOc2c(C#N)cncc2C1)C(F)F	–	human, both sexes	oral, 20 mg single dose	–	subjects with investigations TEAE	0%
CNC(=O)c1ccc(-c2cnc3ncc(Cc4ccc5ncccc5c4)n3n2)cc1F	–	healthy human subjects	oral, 200 mg, Diarrhea, all grades, all causality, together with: itraconazole 200 mg/day	–	subjects with adverse event	11.1%
C[C@]12CC[C@@H]3c4ccc(O)cc4CC[C@H]3[C@@H]1CCC2=O	–	whole cow milk	2000 nM nominal	–	dose fraction in milk fat	74.2%
COc1cc2nccc(Oc3ccc(NC(=O)c4cc5c(n(-c6ccccc6)c4=O)CCCC5=O)nc3)c2cc1OC	–	human, relapsed/refractory AML	oral, dose not given, grade ≥3, any causality, all doses	–	patients with febrile neutropenia	35%
Cc1ccc(Sc2ccccc2N2CCNCC2)c(C)c1	measured: Diarrhea	healthy adult women	oral, 5 mg daily, 12 days	–	participants with TEAE	0%
CCCCCNC(=O)N1CCC(CN(Cc2ccc(Cl)cc2)Cc2ccc([N+](=O)[O-])s2)C1 (stereo not drawn)	measured: LY%	C57BL/6 mouse, blood	100 mg/kg twice daily, 7 days	–	blood cell fraction	73.7 ± 4.5%
O=C(c1ccc(F)cc1)C1CCN(CCn2c(=O)[nH]c3ccccc3c2=O)CC1	–	rat liver microsomes	–	–	intrinsic clearance	140 mL/min/kg
CN1C(=O)[C@@H](NC(=O)c2nnc(Cc3ccccc3)[nH]2)COc2cccnc21	–	healthy human, fasted, plasma	oral, 400 mg single dose, geometric mean	–	Vz/F	90.5 L
CN1CCN(C(=O)c2ccc([C@H]3[C@@H](F)[C@@H](F)C[C@@H](F)[C@H]3F)cc2)CC1	hepatocyte stability	cryopreserved human hepatocytes	1 µM	–	hepatic clearance	6.2 mL/min/kg
O=C(O)c1cc(O)c(O)c(O)c1	–	chicken broilers, serum	oral, 2000 mg/kg feed, free compound, chestnut tannin diet	–	serum concentration	~350 nM
COc1ccnc(C(=O)N[C@H]2COC(=O)[C@H](Cc3ccccc3)[C@@H](O)[C@H](C)OC2=O)c1O	soil adsorption	tested soils	geometric mean	–	KFoc	673 mL/g
C[C@@H](Nc1cc(F)cc(F)c1)c1cc(C(=O)N(C)C)cc2c(=O)cc(N3CCOCC3)oc12	measured: Rash	advanced solid tumour patients	oral, dose not given, dose expansion	–	patients discontinuing for AE	0%
COc1ccc2c(c1)CN(C(=O)CCN1CCC(Cc3ccccc3)CC1)CC[S@@+]2[O-]	telemetry	conscious male beagle dogs	intravenous, 2 mg/kg, 24 h	–	QT interval	212 ± 21 ms
Cc1ccc2c(c1)nc(/C=C/c1cccc3cccnc13)n2-c1cccc(OCCCN2CCN(C)CC2)c1	–	male Sprague-Dawley rat	oral, 10 mg/kg, 4 h	–	plasma concentration	443 ± 75.5 nM
CCCOc1ccc(NC(=O)CN2CCN(C)CC2)cc1-c1nc(CC)c(CC)c(=O)[nH]1	–	healthy Chinese men	10 mg, supine or semi-supine, together with: alcohol 0.5 g/kg	reference: baseline	maximal decrease in systolic BP	-11.3 ± 7.45 mmHg

SMILES	test	test system	conditions	how to read	endpoint	value
CNC(=O)c1ccc(-c2cnc3ncc(Cc4ccc5ncccc5c4)n3n2)cc1F	–	human, healthy subjects, plasma	oral, 200 mg single dose, adjusted geometric mean	–	unbound Cmax	50.9 ng/mL
CO[C@H]1C[C@@H]2CC[C@@H](C)[C@@](O)(O2)C(=O)C(=O)N2CCCC[C@H]2C(=O)O[C@H]([C@H](C)C[C@@H]2CC[C@@H](O)[C@H](OC)C2)CC(=O)[C@H](C)/C=C(\C)[C@@H](O)[C@@H](OC)C(=O)[C@H](C)C[C@H](C)/C=C/C=C/C=C/1C	–	healthy adult horses	intravenous, 0.06 mg/kg, 4 h	–	heart rate	32.5 ± 3.1 beats/min
C=CC(=O)NC1CCN(c2ncc3ncnc(Nc4ccc(Oc5ccc6c(c5)ncn6C)c(C)c4)c3n2)CC1	–	human, male, plasma	oral, 240 mg, fasted, adjusted geometric mean	–	AUC(0-tz)	47 µM·h
COc1ccnc(C(=O)O)c1O	soil adsorption	clay loam soil	pH 7.2, organic carbon 4.4 %	–	KFoc	3880 mL/g
CN(C)N=Nc1[nH]cnc1C(N)=O	–	human patients, plasma	intravenous, 1000 mg/m^2 over 1 h, cycle 2 day 1, co-administered with another drug	–	AUC(0-8h)	130000 ng·h/mL
Cc1cn(C(=O)c2c(-c3c(Cl)cc(Cl)cc3Cl)noc2C(C)(C)F)c2cccc(/C=C/C(=O)O)c12	–	human patients	125 mg bid, cycle 8 day 1	–	AUC(0-8h)	62300 ng·h/mL
O=C(Nc1nc2cccc(-c3ccc(CN4CCS(=O)(=O)CC4)cc3)n2n1)C1CC1	measured: anaemia	rheumatoid arthritis patients	oral, 200 mg once daily, 4 weeks, any relatedness	–	patients with adverse event	0%
CNCc1ccc(-c2[nH]c3cc(F)cc4c3c2CCNC4=O)cc1	–	human patients	oral, 240 mg twice daily, all grades	–	dysgeusia incidence	33.3%
CSCC[C@H](NC(=O)CN)C(=O)N[C@@H](CCCNC(=N)N)C(=O)N[C@@H](Cc1c[nH]c2ccccc12)C(=O)N[C@@H](CO)C(=O)N[C@@H](CCCNC(=N)N)C(=O)N[C@@H](CCCCN)C(=O)N[C@@H](CCSC)C(=O)N1CCC[C@H]1C(=O)N[C@@H](CS)C(=O)N[C@H](C(=O)N[C@@H](CO)C(N)=O)C(C)C	12G5 competition, SUP-T1 cells	human plasma	concentration not given, 8 h	–	remaining activity	30 ± 3%
Cc1cc(Nc2ccc(S(F)(F)(F)(F)F)cc2)n2nc(C(C)(F)F)nc2n1	–	Plasmodium falciparum malaria patients	oral, 250 mg	–	adverse event Stomatitis	0%
Cc1c(C(=O)O)ccc2c3n(nc12)[C@@H]1[C@H](C3)N(CC2CC2)[C@@]2(C(=O)Nc3cc(Cl)ccc32)[C@H]1c1cccc(Cl)c1F	equilibrium dialysis	Crl:CD1(ICR) mouse, both sexes, plasma	pH 7.4	–	unbound fraction	0.0034
NC(=O)CCNC(=O)c1ccc(C2CCCCC2)cc1	liver microsome stability	mouse liver microsomes	1 µM	–	hepatic clearance	76 mL/min/kg
O=C(O)CCC(=O)O.[2H]C([2H])([2H])Oc1cc(C)c2[nH]ccc2c1CN1CC[C@@H](C2CC2)C[C@H]1c1ccc(C(=O)O)cc1	multiple ascending dose	healthy Chinese subjects	100 mg twice daily	–	subjects with TEAE Appendicitis	0%
CCOc1c([C@H](C)n2nc(C)c3c(N)ncnc32)cc(Cl)c(F)c1[C@@H]1CNC(=O)C1	–	patients with B-cell malignancies, plasma	oral, 20 mg once daily, cycle 1 day 15, monotherapy	–	Cmin	146 nM
CN(CC#N)C(=O)C[C@H](Nc1nc2ccccc2[nH]1)c1cccc(C(F)(F)F)c1	–	human	intravenous infusion, 5 mg/kg, 1 mg/mL formulation	–	apparent volume of distribution	99.9 ± 31.2 L
CCc1cc(C(=O)NC)c2nccc(N3CCc4c(cc(Cn5ccnc5)cc4-c4cn(C)nc4C(F)(F)F)C3=O)c2c1	–	Sprague Dawley rats	oral, 100 mg/kg twice daily, 7 days	–	serum CK activity	108 ± 20.6 U/L
COc1cc2c(Nc3ccc(Cl)c(Cl)c3F)ncnc2cc1OC[C@@H]1C[C@@H]2CN(C)C[C@@H]2C1	–	FVB wild-type mouse	oral, 70 mg/kg, 2 h	–	unbound plasma concentration	20.7 ng/mL
O=C(O)CCCOc1ccc([18F])cc1-c1cc(-c2ccccc2C(F)(F)F)n(-c2ccccc2)n1	radio-TLC	ddY mice male, plasma	intravenous, 37 MBq, 30 min	–	unchanged fraction of radioactivity	89.3 ± 0.9%
Nc1ncc(-c2ccncc2)nc1Nc1ccc2[nH]ccc2c1	–	C57BL mice, male, plasma	intravenous, 5 mg/kg	–	initial half-life	0.22 h

SMILES	test	test system	conditions	how to read	endpoint	value
Cn1cc(Nc2nccc(-c3ccc4c(c3)CN(C3COC3)CC[C@H]4NC(=O)c3cn(C(C)(C)C)nn3)n2)cn1	measured: Plasmablasts count	human, clinical trial, whole blood	50 mg twice daily, follow-up	–	percent change from baseline	20.9%
Cc1ccc([C@@H]2O[C@H](CO)[C@@H](O)[C@H](O)[C@H]2O)cc1Cc1ccc(-c2ccc(F)cc2)s1	–	Japanese type 2 diabetes patients	100 mg, day 15, 24 h urine collection	reference: baseline	urinary chloride excretion change	1.33 mEq
N#Cc1ccc2c(c1)[C@H]1CCCN(C(=O)c3ccc4[nH]cnc4c3)[C@H]1C2	–	human	10 mg, end of trial	–	mean ACTH level	6.3 pmol/L
O=C(COc1ccc(Cl)cc1)NC12CC(c3nnc([C@H]4C[C@@H](OC(F)(F)F)C4)o3)(C1)C2	abdominal discomfort	human, both sexes	oral, 400 mg, single ascending dose	reference: subjects	treatment-emergent adverse events	16.7%
C=CC(=O)N(C)CCOc1c(N)ncnc1-c1cc(F)cc(NC(=O)c2ccc(C3CC3)cc2F)c1C	–	human, whole blood	oral, 100 mg once daily, day 1	–	AUC	315 ng·h/mL
C=CC(=O)Nc1cc(Nc2nccc(-c3cn(C)c4ccccc34)n2)c(OC)cc1N(C)CCN(C)C	storage stability	human dried blood spots	72 h, on ice, medium QC level	–	recovery	69.2%
CC[C@@H]1CN(C(=O)NCC(F)(F)F)C[C@@H]1c1cnc2cnc3[nH]ccc3n12	–	healthy subjects, plasma	oral, extended-release formulation, population PK model	reference: ER over IR formulation	relative bioavailability	74.2%
C[Si](C)(C)O[Si](C)(C)O[Si](C)(C)O[Si](C)(C)C	IVIVE from S9	rainbow trout (Oncorhynchus mykiss)	–	–	hepatic biotransformation rate constant	0.046 h⁻¹ and 0.071 h⁻¹ and 0.058 h⁻¹
Cl.[2H]C([2H])([2H])CC(=O)c1cnc(NC(=O)C2CC2)cc1Nc1cccc(-c2ncn(C([2H])([2H])[2H])n2)c1OC	geometric mean	human	oral, 20 mg twice daily, day 1, fed, liquid, multiple dose	–	elimination rate constant	4.5e-05 s⁻¹
CN1CCN(C(=O)c2ccc([C@H]3[C@@H](F)[C@@H](F)C[C@@H](F)[C@H]3F)cc2)CC1=O	hepatocyte stability	cryopreserved human hepatocytes	1 µM	–	hepatic clearance	6.2 mL/min/kg
NCCONC(=O)[C@@H]1CC[C@@H]2CN1C(=O)N2OS(=O)(=O)O	measured: increased vitamin C	healthy Chinese men	intravenous, 1 g, treatment-emergent	–	adverse event incidence	0%
O=C(Cc1cccnc1)Nc1ccc([C@H]2[C@@H](F)[C@@H](F)C[C@@H](F)[C@H]2F)cc1	–	rat liver microsomes	1 µM	–	hepatic clearance	16 mL/min/kg
C[C@H]1CN(C(=O)CC#N)[C@]12CCN(c1ncnc3[nH]ccc13)C2	–	healthy adults, plasma	oral, 3 mg single dose	–	half-life (geometric mean)	2.3 h
CN(CCC#N)C(=O)c1ccc([C@H]2[C@@H](F)[C@@H](F)C[C@@H](F)[C@H]2F)cc1	liver microsome stability	dog liver microsomes	1 µM	–	hepatic clearance	7.3 mL/min/kg
O=C(CCC(C(=O)[O-])N1CCN(C(CCC(=O)NCC(O)CO)C(=O)[O-])Cc2cccc(n2)CN(C(CCC(=O)NCC(O)CO)C(=O)[O-])CC1)NCC(O)CO.[Gd+3] (stereo not drawn)	ICP-MS	rat, femur diaphysis	intravenous, 0.6 mmol Gd/kg, 1 week	–	Gd concentration	2.7 nmol/g
NC(=O)CCNC(=O)c1ccc([C@H]2[C@@H](F)[C@@H](F)C[C@@H](F)[C@H]2F)cc1	liver microsome stability	human liver microsomes	1 µM, without NADPH	–	hepatic clearance	3.9 mL/min/kg
CCN1/C(=C/C(C)=O)Sc2ccc(F)cc21	–	cynomolgus monkey	oral, 100 mg/kg, 24 h post-dose	reference: pre-dose	diastolic blood pressure change	98.2 ± 8.8%
COCCC(=O)Nc1ccc(C2CCCCC2)cc1	liver microsome stability	human liver microsomes	1 µM, without NADPH	–	hepatic clearance	18 mL/min/kg
CN(C(=O)n1cnc(-c2cccnc2)c1)[C@H]1CC[C@H](O)CC1	–	Wistar rat, midbrain	oral, 10 mg/kg of BIA 10-2474, 1 h, single dose	–	concentration	18.6 ± 0.9 ng/g

A few entries again:
SMILES	test	test system	conditions	how to read	endpoint	value
COc1ccc2c(c1)CN(C(=O)CCN1CCC(Cc3ccccc3)CC1)CC[S@@+]2[O-]	telemetry	conscious male beagle dogs	intravenous, 2 mg/kg, 24 h	–	QT interval	212 ± 21 ms
Cc1c(C(=O)O)ccc2c3n(nc12)[C@@H]1[C@H](C3)N(CC2CC2)[C@@]2(C(=O)Nc3cc(Cl)ccc32)[C@H]1c1cccc(Cl)c1F	equilibrium dialysis	Crl:CD1(ICR) mouse, both sexes, plasma	pH 7.4	–	unbound fraction	0.0034
CN1CCN(C(=O)c2ccc(C3CCCCC3)cc2)CC1=O	hepatocyte stability	cryopreserved mouse hepatocytes	1 µM	–	hepatic clearance	48 mL/min/kg
COc1ccnc(C(=O)N[C@H]2COC(=O)[C@H](Cc3ccccc3)[C@@H](O)[C@H](C)OC2=O)c1O	soil adsorption	tested soils	geometric mean	–	KFoc	673 mL/g
COCCC(=O)Nc1ccc(C2CCCCC2)cc1	liver microsome stability	human liver microsomes	1 µM, without NADPH	–	hepatic clearance	18 mL/min/kg
O=C(CCC(C(=O)[O-])N1CCN(C(CCC(=O)NCC(O)CO)C(=O)[O-])Cc2cccc(n2)CN(C(CCC(=O)NCC(O)CO)C(=O)[O-])CC1)NCC(O)CO.[Gd+3] (stereo not drawn)	ICP-MS	rat, femur diaphysis	intravenous, 0.6 mmol Gd/kg, 1 week	–	Gd concentration	2.7 nmol/g
CCCCCNC(=O)N1CCC(CN(Cc2ccc(Cl)cc2)Cc2ccc([N+](=O)[O-])s2)C1 (stereo not drawn)	measured: LY%	C57BL/6 mouse, blood	100 mg/kg twice daily, 7 days	–	blood cell fraction	73.7 ± 4.5%
